# Measured values of several laboratories.
# Each line is one published result; not all experiments were run side by side. Numbers after ± are the reported error.
# BACE1: Beta-secretase 1 (BACE1, Homo sapiens, UniProt P56817)
# Chain of UniProt P56817 (whole entry, looked up): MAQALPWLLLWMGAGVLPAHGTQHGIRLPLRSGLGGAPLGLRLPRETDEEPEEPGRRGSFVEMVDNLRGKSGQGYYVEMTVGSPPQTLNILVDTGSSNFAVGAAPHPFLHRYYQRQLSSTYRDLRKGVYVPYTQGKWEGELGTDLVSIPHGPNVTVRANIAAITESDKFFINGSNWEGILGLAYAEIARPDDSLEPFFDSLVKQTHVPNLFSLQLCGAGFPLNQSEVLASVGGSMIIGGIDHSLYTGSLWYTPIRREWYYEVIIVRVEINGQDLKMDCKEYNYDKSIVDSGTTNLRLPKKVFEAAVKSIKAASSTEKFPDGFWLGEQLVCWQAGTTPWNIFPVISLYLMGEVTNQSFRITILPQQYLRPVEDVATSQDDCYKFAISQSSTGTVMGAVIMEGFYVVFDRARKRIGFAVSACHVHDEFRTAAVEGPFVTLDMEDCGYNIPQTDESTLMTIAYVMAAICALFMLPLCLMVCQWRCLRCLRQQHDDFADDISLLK
# Chain of UniProt P11229 (whole entry, looked up): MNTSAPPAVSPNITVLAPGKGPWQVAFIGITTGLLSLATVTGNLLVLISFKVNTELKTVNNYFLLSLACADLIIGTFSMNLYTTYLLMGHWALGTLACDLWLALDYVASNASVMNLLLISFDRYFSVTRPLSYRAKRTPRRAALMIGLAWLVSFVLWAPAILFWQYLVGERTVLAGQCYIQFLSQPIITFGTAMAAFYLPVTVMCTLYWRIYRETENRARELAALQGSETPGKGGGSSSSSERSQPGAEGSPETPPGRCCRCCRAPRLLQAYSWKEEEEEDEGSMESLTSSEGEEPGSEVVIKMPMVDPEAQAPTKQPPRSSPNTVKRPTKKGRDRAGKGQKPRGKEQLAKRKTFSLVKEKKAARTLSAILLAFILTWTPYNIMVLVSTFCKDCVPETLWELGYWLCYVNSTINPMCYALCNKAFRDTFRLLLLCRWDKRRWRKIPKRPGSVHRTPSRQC
# Chain of UniProt Q6XEC0 (whole entry, looked up): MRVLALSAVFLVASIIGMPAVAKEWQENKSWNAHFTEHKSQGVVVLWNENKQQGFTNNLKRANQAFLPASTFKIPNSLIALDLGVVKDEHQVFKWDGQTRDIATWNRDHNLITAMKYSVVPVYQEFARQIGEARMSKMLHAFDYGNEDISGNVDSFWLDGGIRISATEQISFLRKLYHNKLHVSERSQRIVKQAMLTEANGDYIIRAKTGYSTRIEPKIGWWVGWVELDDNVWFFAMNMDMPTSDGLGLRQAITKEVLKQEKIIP
# Chain of UniProt P34975 (whole entry, looked up): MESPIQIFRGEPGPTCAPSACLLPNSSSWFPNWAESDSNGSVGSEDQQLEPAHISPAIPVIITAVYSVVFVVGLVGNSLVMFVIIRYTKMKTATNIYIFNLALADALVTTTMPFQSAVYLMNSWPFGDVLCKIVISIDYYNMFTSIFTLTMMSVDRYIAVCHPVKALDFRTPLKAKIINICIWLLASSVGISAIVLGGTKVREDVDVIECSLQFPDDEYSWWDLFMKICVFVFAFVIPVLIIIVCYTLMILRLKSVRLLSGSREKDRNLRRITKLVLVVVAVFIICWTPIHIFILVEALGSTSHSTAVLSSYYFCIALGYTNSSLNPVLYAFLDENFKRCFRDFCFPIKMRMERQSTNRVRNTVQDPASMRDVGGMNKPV
# Chain of UniProt P03372 (whole entry, looked up): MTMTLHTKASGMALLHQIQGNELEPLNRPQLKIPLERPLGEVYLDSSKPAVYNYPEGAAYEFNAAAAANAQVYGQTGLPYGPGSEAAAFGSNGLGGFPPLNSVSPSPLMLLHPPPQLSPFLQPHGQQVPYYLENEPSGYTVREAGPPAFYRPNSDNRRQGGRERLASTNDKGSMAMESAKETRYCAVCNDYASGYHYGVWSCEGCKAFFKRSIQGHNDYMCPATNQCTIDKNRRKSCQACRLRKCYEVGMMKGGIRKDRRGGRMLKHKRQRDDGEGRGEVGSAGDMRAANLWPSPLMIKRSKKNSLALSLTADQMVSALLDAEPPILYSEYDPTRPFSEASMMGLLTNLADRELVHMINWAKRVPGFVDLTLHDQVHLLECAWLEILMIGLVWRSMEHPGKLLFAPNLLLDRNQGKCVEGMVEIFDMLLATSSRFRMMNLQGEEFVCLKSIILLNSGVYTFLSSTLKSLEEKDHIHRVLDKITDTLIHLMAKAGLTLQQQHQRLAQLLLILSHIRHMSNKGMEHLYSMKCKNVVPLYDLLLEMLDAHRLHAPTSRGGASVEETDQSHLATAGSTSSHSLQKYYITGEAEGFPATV
# Chain of UniProt P00691 (whole entry, looked up): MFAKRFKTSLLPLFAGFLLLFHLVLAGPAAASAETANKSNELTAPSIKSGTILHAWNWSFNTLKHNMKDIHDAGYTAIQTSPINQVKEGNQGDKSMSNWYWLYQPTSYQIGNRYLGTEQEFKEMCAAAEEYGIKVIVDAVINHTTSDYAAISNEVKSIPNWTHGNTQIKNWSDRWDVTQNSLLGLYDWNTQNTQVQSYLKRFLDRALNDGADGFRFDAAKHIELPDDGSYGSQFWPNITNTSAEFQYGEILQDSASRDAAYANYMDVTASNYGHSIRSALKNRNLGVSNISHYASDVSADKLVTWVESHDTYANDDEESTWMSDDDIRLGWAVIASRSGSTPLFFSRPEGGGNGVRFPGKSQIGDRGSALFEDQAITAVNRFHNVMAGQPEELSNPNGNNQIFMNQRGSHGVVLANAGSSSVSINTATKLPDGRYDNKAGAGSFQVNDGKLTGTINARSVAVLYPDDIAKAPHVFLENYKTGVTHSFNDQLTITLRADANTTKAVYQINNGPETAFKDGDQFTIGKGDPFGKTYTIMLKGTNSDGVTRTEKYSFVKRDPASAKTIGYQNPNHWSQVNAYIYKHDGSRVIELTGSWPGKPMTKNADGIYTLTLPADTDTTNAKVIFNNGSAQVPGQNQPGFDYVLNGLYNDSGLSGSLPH
# Chain of UniProt O88457 (whole entry, looked up): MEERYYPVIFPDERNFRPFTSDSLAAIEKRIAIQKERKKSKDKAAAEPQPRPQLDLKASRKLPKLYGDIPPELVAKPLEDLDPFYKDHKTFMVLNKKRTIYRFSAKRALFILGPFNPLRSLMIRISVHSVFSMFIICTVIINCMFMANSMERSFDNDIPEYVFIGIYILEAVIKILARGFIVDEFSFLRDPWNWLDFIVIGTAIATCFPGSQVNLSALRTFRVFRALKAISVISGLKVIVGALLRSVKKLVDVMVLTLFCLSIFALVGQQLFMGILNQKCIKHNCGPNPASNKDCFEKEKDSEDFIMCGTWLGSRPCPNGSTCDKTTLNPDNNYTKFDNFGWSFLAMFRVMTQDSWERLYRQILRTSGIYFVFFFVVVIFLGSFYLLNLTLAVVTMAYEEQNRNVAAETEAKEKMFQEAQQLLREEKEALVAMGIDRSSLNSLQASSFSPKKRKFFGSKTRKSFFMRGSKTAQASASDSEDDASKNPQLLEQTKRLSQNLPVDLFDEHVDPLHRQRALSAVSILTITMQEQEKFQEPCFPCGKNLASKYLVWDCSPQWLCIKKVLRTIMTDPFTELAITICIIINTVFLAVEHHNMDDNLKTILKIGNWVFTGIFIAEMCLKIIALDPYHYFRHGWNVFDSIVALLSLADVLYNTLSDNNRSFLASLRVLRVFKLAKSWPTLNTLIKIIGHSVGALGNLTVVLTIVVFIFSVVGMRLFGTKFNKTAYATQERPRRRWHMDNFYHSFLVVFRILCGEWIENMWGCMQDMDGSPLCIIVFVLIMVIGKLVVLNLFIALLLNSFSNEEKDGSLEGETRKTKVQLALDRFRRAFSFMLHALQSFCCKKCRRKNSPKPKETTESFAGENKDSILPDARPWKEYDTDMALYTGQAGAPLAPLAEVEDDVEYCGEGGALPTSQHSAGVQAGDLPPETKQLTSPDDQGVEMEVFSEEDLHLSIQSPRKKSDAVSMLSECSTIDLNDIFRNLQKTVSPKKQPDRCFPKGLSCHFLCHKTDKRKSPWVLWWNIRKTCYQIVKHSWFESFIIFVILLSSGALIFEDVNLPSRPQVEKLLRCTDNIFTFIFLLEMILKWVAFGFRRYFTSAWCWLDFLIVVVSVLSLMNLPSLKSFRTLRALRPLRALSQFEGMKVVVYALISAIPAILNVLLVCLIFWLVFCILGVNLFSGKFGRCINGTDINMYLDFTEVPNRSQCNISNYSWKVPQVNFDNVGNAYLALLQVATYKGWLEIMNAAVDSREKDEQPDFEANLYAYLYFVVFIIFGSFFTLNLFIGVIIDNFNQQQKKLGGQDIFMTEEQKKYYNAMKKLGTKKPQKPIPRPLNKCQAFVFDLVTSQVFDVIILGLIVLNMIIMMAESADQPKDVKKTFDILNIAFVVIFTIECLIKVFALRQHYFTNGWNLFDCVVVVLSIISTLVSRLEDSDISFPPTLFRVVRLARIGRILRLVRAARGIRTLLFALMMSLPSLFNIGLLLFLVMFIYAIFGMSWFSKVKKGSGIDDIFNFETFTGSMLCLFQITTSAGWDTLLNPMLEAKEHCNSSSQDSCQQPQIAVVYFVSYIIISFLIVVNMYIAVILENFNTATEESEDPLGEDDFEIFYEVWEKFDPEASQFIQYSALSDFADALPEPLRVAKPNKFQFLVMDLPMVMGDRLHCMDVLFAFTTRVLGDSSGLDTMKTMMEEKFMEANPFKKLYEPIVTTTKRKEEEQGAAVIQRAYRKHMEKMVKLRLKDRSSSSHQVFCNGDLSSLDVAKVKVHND
# Chain of UniProt A0R016 (whole entry, looked up): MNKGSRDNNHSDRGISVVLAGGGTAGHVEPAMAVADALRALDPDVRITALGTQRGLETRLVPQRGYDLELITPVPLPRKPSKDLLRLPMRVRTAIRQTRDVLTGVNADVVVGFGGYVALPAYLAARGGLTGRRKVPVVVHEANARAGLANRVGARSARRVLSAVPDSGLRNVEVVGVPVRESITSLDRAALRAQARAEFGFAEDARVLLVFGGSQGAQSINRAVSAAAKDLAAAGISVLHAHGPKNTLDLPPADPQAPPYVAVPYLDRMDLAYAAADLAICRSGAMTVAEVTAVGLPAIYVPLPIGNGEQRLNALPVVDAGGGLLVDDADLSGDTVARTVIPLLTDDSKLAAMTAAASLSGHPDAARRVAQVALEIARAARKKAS
SMILES,target,test,system,setting,scale,measurement,value
CCCCCCCCCCCCCCCc1ccc(C(O)P(=O)(O)O)cc1 (racemic),"Autotaxin (ENPP2, Homo sapiens, UniProt Q13822)",,,enzyme substrate complex,,Ki′,700 nM
CC[C@H](C)[C@H](NC(=O)[C@H](CCC(N)=O)NC(=O)[C@H](CC(C)C)NC(=O)[C@@H](NC(=O)CNC(=O)[C@H](Cc1ccc(O)cc1)NC(=O)[C@H](CC(=O)O)NC(=O)[C@@H](NC(=O)[C@H](CO)NC(=O)CNC(=O)[C@H](CC(=O)O)NC(=O)[C@@H](NC(=O)[C@H](CC(N)=O)NC(=O)[C@@H](N)CCCNC(=N)N)[C@@H](C)O)[C@@H](C)O)[C@@H](C)CC)C(=O)O,"Periplasmic serine endoprotease DegP (degP, Escherichia coli, UniProt P0C0V0)","reporter cleavage, activator",,with: reporter 100 µM,,concentration for maximal activation,≥ 2 mM
CN(C)c1ccc(/C=C/C(=O)c2ccc(N3CCNCC3)cc2)cc1,BACE1,"enzyme activity, inhibitor, fluorescence",,10 µM,,remaining activity,49.3%
CC(=O)Oc1ccc(C(=O)O)c(OC(C)=O)c1,"Beta-lactamase (ampC, Escherichia coli K-12, UniProt P00811)",,,,,ligand efficiency,0.24
O=C(/C=C/c1ccccc1)c1cc2ccccc2oc1=O,BACE1,"enzyme activity, inhibitor, fluorescence",,10 µM,,remaining activity,74.6%
CCN(CC)CCOc1ccc(-c2nnn(Cc3ccc(OC)cc3)c2N)cc1,"TGF-beta receptor type-1, with Smad3 (TGFBR1, Homo sapiens, UniProt P36897)","TGFBR1-SMAD3 interaction, pull-down",,10 µM,,binding,no effect
CCCCCC1CC(=O)N[C@@H](CO)C(=O)N[C@@H](Cc2ccccc2)C(=O)N[C@@H](Cc2ccc(O)cc2)C(=O)N[C@H](CCCNC(N)=O)C(=O)N[C@@H](CC(=O)O)C(=O)O1 (some centres unmarked),"Proteasome component C5/PSMB5 (Homo sapiens, UniProt P20618+P28074)",,,50 µM,,activity,inactive
CC(C)(C)OC(=O)CCCNC(=O)CN1CCC(Nc2cccc3c2cc(C#CCNc2ccc(P(C)(C)=O)cc2)n3CC(F)(F)F)CC1,"TP53 (Homo sapiens, UniProt P04637, Y220C)","thermal stabilisation, nano differential scanning fluorimetry",,,relative to: DMSO,ΔTm,6.33 °C
CN1C(=O)C2(Cc3ccc(CC45SSC(CO)(C(=O)N4C)N(C)C5=O)cc3)SSC1(CO)C(=O)N2C (racemic),"Histone acetyltransferase p300, CH1 domain (EP300, Homo sapiens, UniProt Q09472)",circular dichroism,,p300 CH1 domain GST fusion,,concentration causing unfolding,10 µM
C[C@]1(COC(=O)c2ccc(O)c(O)c2)[C@H](C(=O)O)N2C(=O)/C(=C/c3ccccn3)[C@H]2S1(=O)=O,"OXA-48 (Klebsiella pneumoniae, UniProt Q6XEC0)","enzyme activity, inhibitor, absorbance",,,,kinact,0.045 s⁻¹
CC(=O)N[C@H]1[C@H](O[C@H]2[C@H](O[C@H](C)C(=O)N[C@@H](C)C(=O)N[C@H](CCC(=O)N[C@@H](CCCCNC(=O)OCCCCCCNC(=S)Nc3ccc(NS(=O)(=O)c4cccc5c(N(C)C)cccc45)cc3)C(=O)N[C@H](C)C(=O)N[C@H](C)C(=O)O)C(=O)O)[C@@H](NC(C)=O)[C@@H](OP(=O)(O)OP(=O)(O)OC/C=C(/C)CC/C=C(/C)CC/C=C(/C)CC/C=C(/C)CC/C=C(/C)CC/C=C(/C)CC/C=C(/C)CC/C=C(/C)CC/C=C(\C)CC/C=C(\C)CCC=C(C)C)O[C@@H]2CO)O[C@H](CO)[C@@H](O)[C@@H]1O,"UDP-N-acetylglucosamine--N-acetylmuramyl-(pentapeptide) pyrophosphoryl-undecaprenol N-acetylglucosamine transferase (murG, Mycolicibacterium smegmatis, UniProt A0R016)",substrate,P-60 membrane fraction,,,Vmax,0.98 µM/min
CS(=O)(=O)c1ccc(Cn2cc(C(=O)N[C@H]3CCCC[C@@H]3O)c3c(F)cc(F)cc32)cc1,"CHRM1 (Homo sapiens, UniProt P11229)","calcium mobilization, positive allosteric modulator",CHO,with: acetylcholine EC20,relative to: acetylcholine maximum,maximal response,77 ± 5%
Cc1sc2c(c1C)C(c1ccc(Cl)cc1)=NC(CC(=O)NCCCNC(=O)OC1CCC=CCCC1)c1nnc(C)n1-2 (centres unmarked),"BRD4 (Homo sapiens, UniProt O60885)","degrader, immunoblot",HeLa,concentration not given,,protein level,no effect
c1ccc2c(c1)Sc1ccccc1N2CC1CN2CCC1CC2 (centres unmarked),"srtA (Staphylococcus aureus, UniProt Q2FV99)","binding, fluorescence quenching",,,,Stern-Volmer constant,5600 L/mol
O=C1SCCC1NC(C(=O)NCc1ccccc1)C1CC1 (centres unmarked),"TST (Homo sapiens, UniProt Q16762)","substrate affinity change, activator, steady-state kinetics",,,,alpha factor,6.2
CSCC[C@H](N)C(=O)N[C@@H](C)C(=O)N[C@@H](C)C(=O)N[C@H](C(=O)N[C@@H](C)C(=O)NCC(=O)N[C@@H](CC(C)C)C(=O)N[C@@H](Cc1ccc(O)cc1)C(=O)NCC(=O)N[C@@H](CC(C)C)C(=O)NCC(=O)N[C@@H](CCCCN)C(=O)N[C@@H](CCCCN)C(=O)N[C@@H](CCCNC(=N)N)C(=O)N[C@@H](CCC(N)=O)C(=O)N[C@@H](Cc1c[nH]cn1)C(=O)N[C@@H](CCCNC(=N)N)C(=O)N[C@@H](CCCCN)C(=O)N[C@@H](CCCCN)C(=O)N[C@@H](CCC(N)=O)C(N)=O)C(C)C,"Sh (Drosophila melanogaster, UniProt P08510, A391C/C301S/C308S/del6-46/T449V)",,,"0.5 µM, after MTSES modification",,slow component current,202 pA
CNC(=O)c1cc(C(=O)NC)cc(-c2ccc(O[C@H]3O[C@H](CO)[C@@H](O)[C@H](O)[C@@H]3O)c(C)c2)c1,"Type 1 fimbrin D-mannose specific adhesin, lectin domain (fimH, Escherichia coli K-12, UniProt P08191)","binding, differential scanning fluorimetry",,,higher = stronger binding,melting temperature,75.8 °C
CC(=O)N[C@@H](CC(C)C)C(=O)N[C@@H](CCC(=O)O)C(=O)N[C@@H](Cc1c[nH]cn1)C(=O)N[C@@H](CC(=O)O)C(=O)Nc1ccc2c(C)cc(=O)oc2c1,"Caspase-7 (CASP7, Homo sapiens, UniProt P55210)","substrate cleavage, substrate, fluorogenic AMC release",,enzyme 0.25 activity units/µL,,Vmax,139 ± 12.5 RFU/min
CC(=O)NCC(=O)N(C)[C@@H](Cc1ccccc1)C(=O)N[C@@H](Cc1ccccc1)C(=O)N[C@@H](Cc1c[nH]c2ccccc12)C(=O)N[C@@H](CCCNC(=N)N)C(=O)N[C@@H](CC(C)C)C(=O)N[C@@H](CCCNC(=N)N)C(=O)N[C@@H](CCCNC(=N)N)C(=O)N[C@H](C)C(=O)N[C@@H](CCCNC(=N)N)C(=O)N1CCC[C@H]1C(=O)N[C@@H](CCCCN)C(N)=O,"Oprk1 (Rattus norvegicus, UniProt P34975)",agonist,CHO cells,10 µM,relative to: dynorphin A(1-13) amide,adenylyl cyclase activity,83 ± 7%
CCN(Cc1ccccc1)C(=O)CCc1nc(CN2CCN(C(=O)Cc3ccc(OC)c(OC)c3)CC2)no1,"Sodium channel protein type 11 subunit alpha (Scn11a, Rattus norvegicus, UniProt O88457)",whole-cell patch clamp,rat DRG neurons,3 µM,,V1/2 of activation,-39.5 ± 1.24 mV
C=C(C)C(=O)Oc1ccc(C(C)(C)c2ccc(OC(=O)C(=C)C)cc2)cc1,"Estrogen receptor (ESR1, Homo sapiens, UniProt P03372)","reporter gene, agonist",MVLN,24 h,,LOEC,5 µM
CC(C)OC(=O)[C@H](C)NP(=S)(Oc1ccccc1)c1ccccc1 (some centres unmarked),"CTSA (Homo sapiens, UniProt P10619)","substrate, fluorescent probe DNS-N3",,"5 µM, pH 7.4, 37 °C, with: enzyme 250 ng/mL",,rate constant,0.31 h⁻¹
CC(C)P(=S)(NP(=[Se])(C(C)C)C(C)C)C(C)C,"Alpha-amylase (Bacillus subtilis, UniProt P00691)","binding, FRET",,298 K,,energy transfer efficiency,36.9%

# For quick reference, copied from above:
SMILES,target,test,system,setting,scale,measurement,value
CC(=O)NCC(=O)N(C)[C@@H](Cc1ccccc1)C(=O)N[C@@H](Cc1ccccc1)C(=O)N[C@@H](Cc1c[nH]c2ccccc12)C(=O)N[C@@H](CCCNC(=N)N)C(=O)N[C@@H](CC(C)C)C(=O)N[C@@H](CCCNC(=N)N)C(=O)N[C@@H](CCCNC(=N)N)C(=O)N[C@H](C)C(=O)N[C@@H](CCCNC(=N)N)C(=O)N1CCC[C@H]1C(=O)N[C@@H](CCCCN)C(N)=O,"Oprk1 (Rattus norvegicus, UniProt P34975)",agonist,CHO cells,10 µM,relative to: dynorphin A(1-13) amide,adenylyl cyclase activity,83 ± 7%
CCN(Cc1ccccc1)C(=O)CCc1nc(CN2CCN(C(=O)Cc3ccc(OC)c(OC)c3)CC2)no1,"Sodium channel protein type 11 subunit alpha (Scn11a, Rattus norvegicus, UniProt O88457)",whole-cell patch clamp,rat DRG neurons,3 µM,,V1/2 of activation,-39.5 ± 1.24 mV
C=C(C)C(=O)Oc1ccc(C(C)(C)c2ccc(OC(=O)C(=C)C)cc2)cc1,"Estrogen receptor (ESR1, Homo sapiens, UniProt P03372)","reporter gene, agonist",MVLN,24 h,,LOEC,5 µM
CC(C)OC(=O)[C@H](C)NP(=S)(Oc1ccccc1)c1ccccc1 (some centres unmarked),"CTSA (Homo sapiens, UniProt P10619)","substrate, fluorescent probe DNS-N3",,"5 µM, pH 7.4, 37 °C, with: enzyme 250 ng/mL",,rate constant,0.31 h⁻¹
